# Published values from different studies.
# Parts stem from different laboratories: compare values within a part only.

# Series 1 — technique: RNA Bind-n-Seq; form: RNA; matrix: in vitro; concentration: not given; notes: RNA with constant flanks, ends assumed; reference: input RNA pool; direction: higher = stronger binding
# Target: RING finger protein unkempt homolog, zinc fingers 1-6, GST-SBP tag (UNK, Homo sapiens, UniProt Q9C0B0, residues 30-357)
# Chain of UniProt Q9C0B0 (30-357, looked up): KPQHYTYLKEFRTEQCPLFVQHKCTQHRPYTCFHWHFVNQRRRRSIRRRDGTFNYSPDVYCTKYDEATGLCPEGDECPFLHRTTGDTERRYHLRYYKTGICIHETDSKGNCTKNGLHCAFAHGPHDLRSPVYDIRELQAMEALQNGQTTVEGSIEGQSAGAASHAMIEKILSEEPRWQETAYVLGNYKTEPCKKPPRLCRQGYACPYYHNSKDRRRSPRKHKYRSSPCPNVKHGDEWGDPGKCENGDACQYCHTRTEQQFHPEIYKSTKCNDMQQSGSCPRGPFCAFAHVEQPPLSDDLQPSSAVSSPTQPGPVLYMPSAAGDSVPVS
Strand,bound/input enrichment
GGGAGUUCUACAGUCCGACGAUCCCUCUCCCUCCAUCCCUCAAAAGAUCUUUAUGCAUUUCCCACUACUCCCUUACUGUCUUUCCGCAUUCAGAGAAAAAGCCAACUUGCUUAAAGAGGAAUCACUUAAAAGGUAGGCAUAUCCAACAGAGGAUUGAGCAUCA,0.585 ratio
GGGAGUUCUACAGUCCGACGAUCAUAAAAUGUGUUUUGUGUUCCCAUUACUGCAGUAGGUGCUAGUGAGCAUAAGAUGCAUACAACCGGGCUCCUGCCCUUCCCUGAGUUAGAAUGUGGUUCAGUACAUAUGUUUAGUAUGCACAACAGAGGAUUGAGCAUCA,1.54 ratio
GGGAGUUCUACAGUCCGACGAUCAAAUCGUGUGUGUCCAAUAUUGAAAGUGCUUUAUCUACACUCCAGUAUGUAAGCAGUACCGCCGUUUCUUUAGAGAAUAGGUCAGCCAUUGUAAAGUACAAUGCAAGCUUAGUCACUCCACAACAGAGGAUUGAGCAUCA,0.329 ratio
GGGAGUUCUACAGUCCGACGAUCGCGCUGGGGGUAAGGGUUACAAAUAAUGAAUUAAAUCAUAUUGGUCAUUAGGACAGAUGCCCGCUGGCUUUUCUAUUUUAACUGACAAGUCCAGAGCAUAUACAAGUGCAUGAAGUGAGACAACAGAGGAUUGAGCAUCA,1.28 ratio
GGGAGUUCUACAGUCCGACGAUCGUAAUGGACGUUAAUACUGCUUUACAAGAGGUUCUGAAGACUGCCCUCAUCCACGAUGGCCCCGCACGUGGAAUUCGCGAAGCUGCCAAAGCCUUAGACAAGCGCCAAGCCCAUCUUUGUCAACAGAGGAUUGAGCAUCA,0.194 ratio
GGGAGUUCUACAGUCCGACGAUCAACAGGCACCCCCAGCUCACAUCACCAGCUCAUCCUUUGGUAGCCAUAGCAGCCCCAACUUCCGCCCCCACUCAUCCCUCCGGGGGCUUGCCUUUCCUUGACAGUUUGGGGGUCUGCCUGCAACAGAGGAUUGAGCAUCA,0.157 ratio
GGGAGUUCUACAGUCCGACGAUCGACAUUUCAAAAACAGGAGAAUAUUUACGAGUUAAACUACCACUAAAUCCAACUGCCCGGGAAUUUCAACCAGAUGUAAAGUCUGAAGCACUGUCUGAGGAUGUGAAGUCCAUACCAGGACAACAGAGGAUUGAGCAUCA,0.139 ratio
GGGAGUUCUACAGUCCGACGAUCAACACGAUUCCCAGUUUCUUCAACUGGUUCUCAGACCACAGCCUCCUAGAAUUCGACAGAACCGCUGAAAUUAUCAAAGGGGAGCUGUGGUCCAAUCCCCUACAAUACUAUCUGAUGGGCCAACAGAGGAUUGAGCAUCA,0.245 ratio
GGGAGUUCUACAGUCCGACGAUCGAAACCACUUAUCCAAAUACUUACAUUUUUGACUUGUUUGGAGGUGUUGAUCUUCUUGCCGAAAUUCUUAUGAGGCCUACGAUCUCUAUCCGGGGACAGAAACUGAAAAUAAGUGAUGAACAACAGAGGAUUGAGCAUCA,0.567 ratio
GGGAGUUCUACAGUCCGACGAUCGUAUCCAUGGGGCUUACAAGGAGCAUGCAAGUUGUCCCCUUGGACAAACAGAUCACAAUCACCGACCGUCCGAGCUUCAUCGUAUCUCCACUUAAUUCCUCCUCUGCGCUUGCUCUGCGACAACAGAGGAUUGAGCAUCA,0.0901 ratio
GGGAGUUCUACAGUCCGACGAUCUGGCCUUGAUUUAGUGACAGUUUAUUCUAAUGGGGACCAUAGGUGUUAUUAGUAAAAAGACCGUGUACAAGGCCUAAGUUCAGUUUACAUUGUUCUUUGAAAUGAGUUCAUCUUUUGUGUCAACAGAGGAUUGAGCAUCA,1.01 ratio

# Series 2 — technique: RNA Bind-n-Seq; form: RNA; matrix: in vitro; concentration: 365 nM; reference: no-protein control; direction: higher = stronger binding
# Target: RNA binding protein fox-1 homolog 2, RRM domain, GST-SBP tag (RBFOX2, Homo sapiens, UniProt O43251-10, residues 100-194)
# Notes: natural RNA segment, single round, ends assumed
# Residues (chain): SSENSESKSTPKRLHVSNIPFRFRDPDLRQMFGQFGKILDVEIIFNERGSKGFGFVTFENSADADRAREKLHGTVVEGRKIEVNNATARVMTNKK
Strand,RBNS enrichment (R)
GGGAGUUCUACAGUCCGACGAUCUUGUUCAUUUAAUAGCUUCUAAAAGGCCUUUUUGUUAUACAGUGCUUUUUUUCUAGUUUUAUGGACUUGGUUACUGUAAUAAUGUCUUGUUUUUAGCCAUGUAACUACAAUGGAAUUCUCGGGUGCCAA,1.11
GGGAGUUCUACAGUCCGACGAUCCUCAGUACUGUAUUUGCUCAGUGCAUCAGGAAUGGGUGUAUGGGUGUGUGUGGGUGGGUGUGAGUGUGGGUGUGUACGUACCAAUAAACAACCUGGUUUUAAGACAAUGUUGGAAUUCUCGGGUGCCAA,1.45
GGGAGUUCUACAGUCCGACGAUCCUGAAGUGAGGAUUUAGUAUUUUUUAAAAAAGCAAAACAAGGUUCAGUAGUCCUCAGCAAUUCUCCAAGUUUCUCUCUUUGCCUAAAAUGGUCAUAGAUCUUGAUUUCUCUGGAAUUCUCGGGUGCCAA,0.403
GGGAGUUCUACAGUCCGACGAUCAGGAUUCAGAGUAAAACUCAAAGGAUUCAGUUUGAGCCUAGAAUGAUGGUUAGACUUGUAGUCACUGGGCUUUUGUUUUGCUUUAUGGAAAUCAUUGAAGGUCUGGAUCCUGGAAUUCUCGGGUGCCAA,1.98
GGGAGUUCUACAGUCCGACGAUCGGAAAGUAAGAACACUGAUGGUGAUUCCUCUGCAAAGAUGAUAAGAAAAAGAACCAAUAAAUCACACAAUCUUUAUGUGCUUUCUAUAUGUAUUUCUUAGUAGUGAUACCUGGAAUUCUCGGGUGCCAA,0.601
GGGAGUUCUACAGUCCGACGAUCAUACAAAAAAACAUUGAUACUAUAAAAUGGUAAAAAGCGUCUUCUUUCUAAACAGCCCCAGUGUUGAAGUCUAUACUUAAUUUUGUUCUGUUCUGUUUUGUUUUCCUGUUUGGAAUUCUCGGGUGCCAA,0.462
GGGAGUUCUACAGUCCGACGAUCGACUCUUAUCCAGAGGGCUCAGAGACAGAGUGUUCUUUCAUUUGUACCGCCCUCUCAGUUCAACUUUGCUCACUCAGGUUUCCACUUGGAAGACAUCUCCACAAGUCAGAUGGAAUUCUCGGGUGCCAA,0.356
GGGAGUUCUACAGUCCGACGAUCAGGUGUUUCCUGCGCUACUACUUGUCAUGUUGCAUUCAUGUUCACAUCCUGAUUUCACUGCCUCAGAUGUGCCUGGCCACAAAGCACUCUGAACUAAUUCCUAAAGAGAAUGGAAUUCUCGGGUGCCAA,0.596
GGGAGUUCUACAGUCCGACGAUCCGUACCCACACUGGCUGUAGCCACUUCAGUCCAUCUGCCCUCCAGAGGAGGGGUUUCUUCCUGAUUUUUAGCAGGUUUAGAGGCUGCAGCUUGAGCUACAAUCAGGAGGGUGGAAUUCUCGGGUGCCAA,0.495
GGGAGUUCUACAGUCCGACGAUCCAUUCUCUUUUAGCAACUGAAUUCCCAACGAGUUUUAUUAAGCUGGAUAUCGAAAUGAAGGAGCUGCCUUAAGCACUUUAGAAAAAGAAUUUUUUUACAAUUCAUUUUGAUGGAAUUCUCGGGUGCCAA,0.654
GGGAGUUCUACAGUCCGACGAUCCUGUAUUGACUGUGUAUGUGCCUUUCACCUUGAGCAUGCUUCAGGAAUUUUUUUUUUUCUUAAACCACAGAACUUGAAUACACAAGGGAACCAGAAUUCACAAAGUCCUAUGGAAUUCUCGGGUGCCAA,4.49
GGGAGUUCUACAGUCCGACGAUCAGAAAUUGCUGGAUAGCGAAGUGCCACUGGGUUCUUUGCCCUCCCUUCACACCAUGGGAUAAAUCUGUAUCAAGACGGUUCUUUUCUAGAUUUCCUCUACCUUUUUGCUCUGGAAUUCUCGGGUGCCAA,0.347

# Series 3 — technique: universal PBM; form: double-stranded DNA, one strand shown; matrix: in vitro; concentration: not given; direction: higher = stronger binding
# Target: Sal-like protein 4, full length isoform B (SALL4, Homo sapiens, UniProt Q9UJQ4-2, residues 1-616)
# Notes: 8-mer, flanks averaged, mean of replicates
# Construct (chain): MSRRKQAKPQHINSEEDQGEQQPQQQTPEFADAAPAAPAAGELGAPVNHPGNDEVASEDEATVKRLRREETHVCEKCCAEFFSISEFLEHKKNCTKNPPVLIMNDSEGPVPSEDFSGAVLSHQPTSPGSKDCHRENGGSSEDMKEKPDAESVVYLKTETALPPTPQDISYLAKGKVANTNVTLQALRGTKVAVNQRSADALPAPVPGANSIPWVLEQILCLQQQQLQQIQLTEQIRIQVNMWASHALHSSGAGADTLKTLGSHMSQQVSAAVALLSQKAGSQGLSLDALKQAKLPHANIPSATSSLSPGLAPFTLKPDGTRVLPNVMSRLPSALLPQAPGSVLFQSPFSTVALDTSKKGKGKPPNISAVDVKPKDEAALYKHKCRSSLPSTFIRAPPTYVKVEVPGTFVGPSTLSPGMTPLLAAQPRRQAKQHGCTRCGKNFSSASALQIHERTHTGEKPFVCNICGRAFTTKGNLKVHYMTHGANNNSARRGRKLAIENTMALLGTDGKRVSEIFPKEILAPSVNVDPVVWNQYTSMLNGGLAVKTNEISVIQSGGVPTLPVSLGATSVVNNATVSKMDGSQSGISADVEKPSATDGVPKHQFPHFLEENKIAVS
Strand,E-score
ACAGTCAT,0.14
AATGGGCT,-0.0895
CCTGTTCA,-0.116
AGGCAACG,-0.25
AACCGCTT,-0.0559
AACAGACA,0.0035
GCTGTCCA,-0.214
GATCATTA,0.196
CCCGATAA,-0.0483
CGCCGGGA,-0.324
CTGTGGAA,-0.0625
CGCCTCCA,-0.0519
GCATATGA,0.196
ACCGGTAT,-0.232
AAAAGTAG,0.203
AAGGTCAT,0.0655
ATCATTAA,0.304
CGCAGACA,-0.0392
AATAACTG,0.303
AAGGTGGT,0.0544
AAAGCAAA,0.245
CTTTAACA,0.261
AGCACTGG,-0.125
ACGGACAA,-0.0151
AAGTACTG,0.131

# Series 4 — technique: RNA Bind-n-Seq; form: RNA; matrix: in vitro; concentration: 200 nM; notes: whole 134-nt RNA, ends assumed; together with: 150 mM LiCl; reference: input library; direction: higher = stronger binding; library: 7-deaza-guanosine replaces G
# Target: Fragile X messenger ribonucleoprotein 1, C-terminal low-complexity region (Fmr1, Mus musculus, UniProt P35922)
Strand,log2 enrichment
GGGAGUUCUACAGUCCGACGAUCUGGGAGGUGGAUUUUGUUUAUUUUUUUAGCUCAUUUCCAGGGGUGGGAAUUUUUUUUUAAUAUGUGUCAUGUAUAAAGUUGUUUUUGAAAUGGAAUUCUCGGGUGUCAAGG,0.451
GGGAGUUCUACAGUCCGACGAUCACCAUGCAGGUGGGCAUCUUUGGGAAGUGGGGCAAGGGGGGGAUAAAGAGGGGGGUAACACUUUGGGAACAGGUGGUCCCAGGUCGUUUCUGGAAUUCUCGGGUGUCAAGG,1.02
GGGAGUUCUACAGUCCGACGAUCUCAAGUCCUGUGCUACACAUCGUAUGUACCGAAUCGGGUUUGGGUUUGGGAGGGAAAGUAUUAUGUUACGCCGUUCGGAUCUGCACUUCCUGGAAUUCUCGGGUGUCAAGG,-0.653
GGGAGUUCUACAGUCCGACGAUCACCAUGCAGGUGGGCAUCUUUGGGAAGUGGGGCAAGGGGGGGAUAGGGAGGGGGGUAACACUUUGGGAACAGGUGGACCCAGGUCGUUUCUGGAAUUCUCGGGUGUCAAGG,1.54
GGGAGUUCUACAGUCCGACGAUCUAACUUUAUAGGAGGAUCUGAUGGAUAUGGCAGUGGACGUGGAUUUGGGGAUGGCUAUAAUGGGUAUGGAGGAGGACCUGGAGGUGGCAAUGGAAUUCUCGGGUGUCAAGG,-0.446
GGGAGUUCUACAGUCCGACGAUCAGUCCUGUGCUACACAUCGUAUGUACCGAAUCGGGUUUUUUUGGGAAAGGGUUUGGGAAAGUAUUAUGUUACGCCGUUCGGAUCUGCACUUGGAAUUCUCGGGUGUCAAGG,-2.88
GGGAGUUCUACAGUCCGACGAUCCCUGUGCUACACAUCGUAUGUACCGAAUCGGGGAAAAAAAGGAAAAAAAGGAAAAAAAGGAAAGUAUUAUGUUACGCCGUUCGGAUCUGCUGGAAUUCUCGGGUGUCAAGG,-0.418
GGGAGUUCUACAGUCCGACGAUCUCAAGUCCUGUGCUACACAUCGUAUGUACCGAAUCGGGCCGGGGCCGGGCCGGGAAAGUAUUAUGUUACGCCGUUCGGAUCUGCACUUCCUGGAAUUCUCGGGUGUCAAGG,0.262
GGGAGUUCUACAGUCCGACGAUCUAACUUUAGAGGAGGAUCUGAUGGAUAUGGCAGUGGACGUGGAUGUGGGGAUGGCUAUAAUGGGUAUGGAGGAGGACCUGGAGGUGGCAAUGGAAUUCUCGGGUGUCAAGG,0.907
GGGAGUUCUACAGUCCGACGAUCUGUUCACAUUUUAAGGAUGACAAGUCCACUAUAUGUAACACGUAAGAAUGCUAUCCUGGCAGUAGACACAGGGCCAGAAUAAACUGGCAAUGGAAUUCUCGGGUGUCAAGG,-1.91
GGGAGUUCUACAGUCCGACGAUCCUGUGCUACACAUCGUAUGUACCGAAUCGGGGUUUUUUGGGUUUUUUGGGGUUUUUUGGGGAAAGUAUUAUGUUACGCCGUUCGGAUCUGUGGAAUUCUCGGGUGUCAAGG,1.27
